Results of several laboratories.
Lines come from different studies, so protocols differ. Values joined by “and” are separate records of one study, mostly repeats; a detail may differ.
T1: itself; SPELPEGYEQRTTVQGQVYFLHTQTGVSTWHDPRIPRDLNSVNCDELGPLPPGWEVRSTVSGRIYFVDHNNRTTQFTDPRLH
T2: itself; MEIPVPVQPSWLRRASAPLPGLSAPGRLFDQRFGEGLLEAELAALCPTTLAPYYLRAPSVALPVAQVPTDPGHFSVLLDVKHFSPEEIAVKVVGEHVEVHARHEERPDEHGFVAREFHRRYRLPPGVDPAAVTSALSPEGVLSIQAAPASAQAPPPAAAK
T3: itself; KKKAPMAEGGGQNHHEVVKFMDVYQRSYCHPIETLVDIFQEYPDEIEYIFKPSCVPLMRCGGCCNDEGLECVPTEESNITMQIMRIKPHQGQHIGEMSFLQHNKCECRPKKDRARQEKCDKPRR
T4: itself; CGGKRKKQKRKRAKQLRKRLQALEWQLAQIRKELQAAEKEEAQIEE
T5: itself; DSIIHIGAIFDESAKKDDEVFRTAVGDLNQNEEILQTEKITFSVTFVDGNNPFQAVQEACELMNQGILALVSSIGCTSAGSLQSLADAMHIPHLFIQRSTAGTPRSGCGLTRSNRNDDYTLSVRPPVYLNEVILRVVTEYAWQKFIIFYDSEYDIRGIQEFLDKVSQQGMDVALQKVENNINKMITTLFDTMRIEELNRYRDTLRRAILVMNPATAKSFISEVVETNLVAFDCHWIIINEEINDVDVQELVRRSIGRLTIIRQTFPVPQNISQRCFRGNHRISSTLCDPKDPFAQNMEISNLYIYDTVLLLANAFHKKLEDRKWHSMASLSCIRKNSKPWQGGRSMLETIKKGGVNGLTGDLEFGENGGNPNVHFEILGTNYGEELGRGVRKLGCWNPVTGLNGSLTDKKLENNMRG
T6: itself; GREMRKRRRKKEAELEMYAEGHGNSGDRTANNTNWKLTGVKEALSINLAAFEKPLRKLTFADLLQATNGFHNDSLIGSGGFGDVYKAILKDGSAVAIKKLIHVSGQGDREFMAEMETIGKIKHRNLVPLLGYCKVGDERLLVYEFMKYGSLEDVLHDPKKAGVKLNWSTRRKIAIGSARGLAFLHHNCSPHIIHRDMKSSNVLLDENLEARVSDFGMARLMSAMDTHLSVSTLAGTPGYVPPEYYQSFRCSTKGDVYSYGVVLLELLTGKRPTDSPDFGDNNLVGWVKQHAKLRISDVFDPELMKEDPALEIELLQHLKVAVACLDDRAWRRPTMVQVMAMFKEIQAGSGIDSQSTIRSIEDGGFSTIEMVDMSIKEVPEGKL
T7: itself; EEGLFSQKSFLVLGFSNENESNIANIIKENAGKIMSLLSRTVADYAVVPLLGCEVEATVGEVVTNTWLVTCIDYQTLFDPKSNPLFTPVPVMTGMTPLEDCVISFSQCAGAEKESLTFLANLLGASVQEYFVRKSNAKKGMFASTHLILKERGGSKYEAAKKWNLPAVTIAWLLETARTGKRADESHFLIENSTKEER
B1: SMURF1 WW1-WW2 pair (Homo sapiens); chain SPELPEGYEQRTTVQGQVYFLHTQTGVSTWHDPRIPRDLNSVNCDELGPLPPGWEVRSTVSGRIYFVDHNNRTTQFTDPRLH
B2: HSPB6 (Homo sapiens, UniProt O14558); PKA-phosphorylated Ser16; chain MEIPVPVQPSWLRRASAPLPGLSAPGRLFDQRFGEGLLEAELAALCPTTLAPYYLRAPSVALPVAQVPTDPGHFSVLLDVKHFSPEEIAVKVVGEHVEVHARHEERPDEHGFVAREFHRRYRLPPGVDPAAVTSALSPEGVLSIQAAPASAQAPPPAAAK
B3: VEGFA VEGF121 N-terminal KKK addition (Homo sapiens); chain KKKAPMAEGGGQNHHEVVKFMDVYQRSYCHPIETLVDIFQEYPDEIEYIFKPSCVPLMRCGGCCNDEGLECVPTEESNITMQIMRIKPHQGQHIGEMSFLQHNKCECRPKKDRARQEKCDKPRR
B4: Grid2 N-terminal domain (Rattus norvegicus); chain DSIIHIGAIFDESAKKDDEVFRTAVGDLNQNEEILQTEKITFSVTFVDGNNPFQAVQEACELMNQGILALVSSIGCTSAGSLQSLADAMHIPHLFIQRSTAGTPRSGCGLTRSNRNDDYTLSVRPPVYLNEVILRVVTEYAWQKFIIFYDSEYDIRGIQEFLDKVSQQGMDVALQKVENNINKMITTLFDTMRIEELNRYRDTLRRAILVMNPATAKSFISEVVETNLVAFDCHWIIINEEINDVDVQELVRRSIGRLTIIRQTFPVPQNISQRCFRGNHRISSTLCDPKDPFAQNMEISNLYIYDTVLLLANAFHKKLEDRKWHSMASLSCIRKNSKPWQGGRSMLETIKKGGVNGLTGDLEFGENGGNPNVHFEILGTNYGEELGRGVRKLGCWNPVTGLNGSLTDKKLENNMRG
B5: BRI1 814-1196 (Arabidopsis thaliana, UniProt O22476); chain GREMRKRRRKKEAELEMYAEGHGNSGDRTANNTNWKLTGVKEALSINLAAFEKPLRKLTFADLLQATNGFHNDSLIGSGGFGDVYKAILKDGSAVAIKKLIHVSGQGDREFMAEMETIGKIKHRNLVPLLGYCKVGDERLLVYEFMKYGSLEDVLHDPKKAGVKLNWSTRRKIAIGSARGLAFLHHNCSPHIIHRDMKSSNVLLDENLEARVSDFGMARLMSAMDTHLSVSTLAGTPGYVPPEYYQSFRCSTKGDVYSYGVVLLELLTGKRPTDSPDFGDNNLVGWVKQHAKLRISDVFDPELMKEDPALEIELLQHLKVAVACLDDRAWRRPTMVQVMAMFKEIQAGSGIDSQSTIRSIEDGGFSTIEMVDMSIKEVPEGKL
B6: TOPBP1 BRCT4/5 549-746 (UniProt Q92547); GST fusion; chain EEGLFSQKSFLVLGFSNENESNIANIIKENAGKIMSLLSRTVADYAVVPLLGCEVEATVGEVVTNTWLVTCIDYQTLFDPKSNPLFTPVPVMTGMTPLEDCVISFSQCAGAEKESLTFLANLLGASVQEYFVRKSNAKKGMFASTHLILKERGGSKYEAAKKWNLPAVTIAWLLETARTGKRADESHFLIENSTKEER
Sequence of UniProt Q14653 (whole entry, looked up): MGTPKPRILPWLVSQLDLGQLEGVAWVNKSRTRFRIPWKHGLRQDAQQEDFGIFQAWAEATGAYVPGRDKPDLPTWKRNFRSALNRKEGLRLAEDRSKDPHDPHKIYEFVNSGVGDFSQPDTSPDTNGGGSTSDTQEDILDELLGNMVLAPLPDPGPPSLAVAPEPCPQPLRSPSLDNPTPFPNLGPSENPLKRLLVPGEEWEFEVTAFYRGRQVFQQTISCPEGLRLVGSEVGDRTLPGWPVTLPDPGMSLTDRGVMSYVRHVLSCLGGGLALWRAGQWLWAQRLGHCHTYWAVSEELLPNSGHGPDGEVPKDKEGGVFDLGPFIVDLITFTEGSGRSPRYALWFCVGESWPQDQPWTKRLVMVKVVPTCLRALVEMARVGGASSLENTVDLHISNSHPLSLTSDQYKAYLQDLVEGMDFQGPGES
Sequence of UniProt P37089 (whole entry, looked up): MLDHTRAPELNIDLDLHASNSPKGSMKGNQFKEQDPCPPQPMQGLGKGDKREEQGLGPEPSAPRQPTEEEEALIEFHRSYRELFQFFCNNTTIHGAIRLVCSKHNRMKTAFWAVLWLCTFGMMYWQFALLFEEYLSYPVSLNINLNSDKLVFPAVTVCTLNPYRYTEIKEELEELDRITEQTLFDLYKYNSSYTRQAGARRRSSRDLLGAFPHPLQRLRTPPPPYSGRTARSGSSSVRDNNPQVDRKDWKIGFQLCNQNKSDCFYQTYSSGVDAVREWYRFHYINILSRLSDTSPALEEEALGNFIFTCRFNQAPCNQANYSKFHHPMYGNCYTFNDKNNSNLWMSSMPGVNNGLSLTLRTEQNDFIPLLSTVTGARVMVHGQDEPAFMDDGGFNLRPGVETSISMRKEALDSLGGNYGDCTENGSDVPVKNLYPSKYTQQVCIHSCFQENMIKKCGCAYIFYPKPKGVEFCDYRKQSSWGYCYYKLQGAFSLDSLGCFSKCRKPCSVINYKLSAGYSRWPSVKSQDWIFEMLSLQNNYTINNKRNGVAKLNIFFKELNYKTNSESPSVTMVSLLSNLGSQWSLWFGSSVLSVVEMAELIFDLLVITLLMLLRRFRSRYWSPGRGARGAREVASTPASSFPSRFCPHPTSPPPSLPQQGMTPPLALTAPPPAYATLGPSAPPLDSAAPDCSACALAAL
Sequence of UniProt Q8MIP0 (whole entry, looked up): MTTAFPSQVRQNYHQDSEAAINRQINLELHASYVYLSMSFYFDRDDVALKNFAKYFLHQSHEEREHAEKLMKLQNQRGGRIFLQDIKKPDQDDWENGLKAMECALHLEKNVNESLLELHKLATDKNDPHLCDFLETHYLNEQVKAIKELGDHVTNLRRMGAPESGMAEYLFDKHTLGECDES

Substance	partner	assay	test system	setting	subunits per oligomer
IRF3, phosphorylated by TBK1 (Homo sapiens, UniProt Q14653)	itself	AUC	–	–	4 and 2
MMP9 proMMP-9, trimer E402A (Homo sapiens)	itself	atomic force microscopy	–	–	3
B1 (SMURF1 WW1-WW2 pair)	T1, itself	native MS	–	–	3
SELL/IGHG1 extracellular domain/Fc fusion (Mus musculus/Homo sapiens)	itself	SDS-PAGE reduced and non-reduced	–	–	2
Scnn1a (Rattus norvegicus, UniProt P37089)	itself	SEC	CHO, lysate	not purified	3
B2 (HSPB6)	T2, itself	AF4-MALLS	–	–	2
gerBC fragment (Bacillus subtilis)	itself	crystal structure	–	–	2
SUGCT fragment Q262A/K263A (Homo sapiens)	itself	crystal structure	–	–	2
CUL4A/RBX1/DDB1/DCAF1/NEDD8 full length, neddylated CUL4A (Homo sapiens)	itself	cryo-EM	–	–	2
B3	T3, itself	mass spectrometry	–	–	2
SHARPIN fragment (Homo sapiens)	itself	SEC-MALS	–	pH 7.4, 25 °C, NaCl 150 mM	2
D1 chaperone full length, aerobic (Sterolibacterium denitrificans)	itself	SEC	–	denaturing, without DTT	2
cas-2 fragment I373A (Caenorhabditis elegans)	itself	SEC	–	–	2
CGGKRKKQKRKRAKQLRKRLQALEWQLAQIRKELQAAEKEEAQIEE (APH3 designed coiled coil)	T4, itself	AUC	designed binder	pH 7.91, 20 °C, NaCl 150 mM, together with: TCEP 1 mM	2
cyc2 fragment (Streptomyces coelicolor)	itself	crystal structure	–	–	2
CD3E (Homo sapiens, UniProt P07766)	itself	two-colour coincidence detection	PM1	–	2
GCN4/KCNMA1 GCN4_LI plus residues 329-end (Homo sapiens)	itself	crystal structure	–	without Ca2+	4

Substance	partner	assay	test system	setting	subunits per oligomer
proNGF residues -121 to 118 three furin sites to alanine (Mus musculus)	itself	SEC	–	pH 7.2, NaCl 150 mM	2
nitrile hydratase (Monosiga brevicollis)	itself	SEC	–	–	2
US6/Ighm gD (Herpes simplex virus-2/Mus musculus)	itself	SEC	–	–	18.6
B4 (Grid2 N-terminal domain)	T5, itself	SEC	–	–	2
cas-2 fragment V367A/I373A (Caenorhabditis elegans)	itself	SEC	–	–	2
USO1 dimer (Bos taurus)	itself	SEC	–	–	2
CRYGS N15D/Q121E/N144D/N54D/Q93E/Q64E/Q17E (Homo sapiens)	itself	SEC-MALS	–	–	2
protein 85-329 (Methylococcus capsulatus, UniProt Q7WZ30)	itself	SEC	–	pH 8.0, NaCl 0.5 M	2
HBA1/HBB tetramer (Homo sapiens)	itself	native MS	–	–	4
cas-2 fragment V411A (Caenorhabditis elegans)	itself	SEC	–	–	2
B5 (BRI1 814-1196)	T6, itself	SEC	–	pH 7.5, NaCl 100 mM	2
BCL11A extended ZnF1	itself	AUC	–	–	2
NFU1 (human, UniProt Q9UMS0)	itself	AUC	–	72 µM, pH 7.5	4
ferritin apo, 15% H 85% L (Equus caballus, UniProt Q8MIP0)	itself	AUC	–	–	2
cdaA catalytic domain (Lactococcus lactis)	itself	SEC	–	–	2
Pkm (Mus musculus, UniProt P52480)	itself	native PAGE	Sirt2-/- mammary tumor cells	not purified	4
B6 (TOPBP1 BRCT4/5 549-746)	T7, itself	SEC	–	–	2

Repeated from above:
Substance	partner	assay	test system	setting	subunits per oligomer
SHARPIN fragment (Homo sapiens)	itself	SEC-MALS	–	pH 7.4, 25 °C, NaCl 150 mM	2
D1 chaperone full length, aerobic (Sterolibacterium denitrificans)	itself	SEC	–	denaturing, without DTT	2
cas-2 fragment I373A (Caenorhabditis elegans)	itself	SEC	–	–	2
CGGKRKKQKRKRAKQLRKRLQALEWQLAQIRKELQAAEKEEAQIEE (APH3 designed coiled coil)	T4, itself	AUC	designed binder	pH 7.91, 20 °C, NaCl 150 mM, together with: TCEP 1 mM	2
cyc2 fragment (Streptomyces coelicolor)	itself	crystal structure	–	–	2
CD3E (Homo sapiens, UniProt P07766)	itself	two-colour coincidence detection	PM1	–	2
